Experimental data from different studies.
Lines come from different studies, so protocols differ. Several values in a cell are separate wells, animals, samples, runs or records.

Compound	test	system	setting	how to read	measurement	result
C=CCN1CCC23c4c5ccc(OC(=O)c6ccc(N)cc6)c4OC2C(=O)CCC3(O)C1C5 (stereo not drawn)	–	rat plasma	0 h, together with: digitonin 100 µM	–	remaining compound	102% and 99.1% and 98.3%
CSCC[C@@H]1NC(=O)[C@H](C(C)C)NC(=O)[C@H](CCCNC(=N)N)NC(=O)CNC(=O)[C@@H]2CCCN2C(=O)[C@@H](NC(=O)CNC(=O)[C@H](CO)NC(=O)CNC(=O)[C@H](CO)NC(=S)Nc2ccc(C[C@H]3CN(CC(=O)O)CCN(CC(=O)O)CCN3CC(=O)O)cc2)CSSC[C@@H](C(N)=O)NC(=O)[C@@H]2CCCN2C(=O)CNC(=O)[C@H](CCC(=O)O)NC(=O)[C@H](CC(=O)O)NC(=O)[C@H](CC(=O)O)NC(=O)CNC(=O)[C@H](CC(C)C)NC(=O)[C@H](Cc2c[nH]cn2)NC(=O)[C@H](CC(C)C)NC(=O)CNC(=O)[C@H](Cc2c[nH]cn2)NC1=O [copper-64 labelled]	SE-HPLC	rat serum	1.2 µM, 1 h, 37 °C	–	remaining intact	> 90%
CC[C@H](C)[C@H](NC(=O)[C@@H](NC(=O)[C@@H](NC(=O)[C@@H](NC(=O)[C@@H](N)CCCCN)C(C)C)C(C)C)C(C)C)C(=O)N[C@H](C(N)=O)[C@@H](C)O	LC-MS	pronase digest	200 µM, 30 min, pH 7.5, 37 °C, together with: pronase 2.5 µg/mL	–	remaining intact peptide	89%
C#Cc1c(F)ccc2cc(O)cc(-c3ncc4c(N5CC6CCC(C5)N6C(=O)OC(C)OC(=O)CCCCC)nc(OC[C@@]56CCCN5C[C@H](F)C6)nc4c3F)c12 (stereo partly drawn)	–	simulated gastric fluid	1 µM, 30 min, 37 °C	–	remaining prodrug	110%
C=CCN1CCC23c4c5ccc(OC(=O)c6ccccc6)c4OC2C(=O)CCC3(O)C1C5 (stereo not drawn)	–	rat plasma	1 h, together with: digitonin 100 µM	–	remaining compound	0%
Cc1nnc(-c2ccc(CC(=O)NCCCC[C@H](NC(=O)c3ccc(OCc4ccc(B(O)O)cc4)c(-c4nc5ccccc5c(=O)[nH]4)c3)C(=O)NCC(=O)NCC(=O)NCC(=O)N[C@@H](Cc3ccccc3)C(=O)N[C@@H](Cc3ccccc3)C(=O)O)cc2)nn1	UPLC-MS/MS	human serum	100 µM, 3 h, 37 °C	–	remaining compound	74.3% and 82%
C#Cc1c(F)ccc2cc(O)cc(-c3ncc4c(N5CC6CCC(C5)N6C(=O)OC(C)OC(=O)c5cccc6ccccc56)nc(OC[C@@]56CCCN5C[C@H](F)C6)nc4c3F)c12 (stereo partly drawn)	–	simulated gastric fluid	1 µM, 30 min, 37 °C	–	remaining prodrug	93%
C[C@H](NC(=O)CNC(=O)[C@@H]1CCCN1C(=O)[C@H](CO)NC(=O)CNC(=O)[C@H](CO)NC(=O)[C@H](C)NC(=O)[C@H](CC(N)=O)NC(=O)[C@H](C)NC(=O)[C@H](CO)NC(=O)[C@H](C)NC(=O)[C@H](CO)NC(=O)[C@@H]1CCCN1C(=O)[C@H](Cc1ccccc1)NC(=O)[C@H](C)NC(=O)[C@H](CO)NC(=O)[C@@H]1CCCN1C(=O)[C@H](Cc1ccccc1)NC(=O)[C@@H](NC(=O)[C@H](CC(=O)O)NC(=O)[C@@H](N)CO)[C@@H](C)O)C(=O)N[C@@H](CCCNC(=N)N)C(=O)N[C@@H](CO)C(=O)O	–	50% mouse plasma	20 min	–	remaining peptide	1.03%
CSCC[C@H](NC(=O)[C@H](CCCNC(=N)N)NC(=O)[C@H](CCCNC(=N)N)NC(=O)[C@H](CCCCN)NC(=O)[C@H](C)NC(=O)[C@H](CCCNC(=N)N)NC(=O)CNC(=O)[C@@H](N)[C@@H](C)O)C(=O)N[C@@H](CCC(N)=O)C(=O)N[C@@H](Cc1ccc(O)cc1)C(=O)N[C@@H](CC(N)=O)C(=O)N[C@@H](CCCNC(=N)N)C(=O)N[C@@H](CCCNC(=N)N)C(N)=O	HPLC peak area	50% human serum	100 µM, 6 h, pH 7.4, 37 °C	reference: 0 h	remaining peptide	13.2% and 14.4% and 10.9%

Repeated from above:
Compound	test	system	setting	how to read	measurement	result
C=CCN1CCC23c4c5ccc(OC(=O)c6ccc(N)cc6)c4OC2C(=O)CCC3(O)C1C5 (stereo not drawn)	–	rat plasma	0 h, together with: digitonin 100 µM	–	remaining compound	102% and 99.1% and 98.3%
